# Measured values collected from several papers.
# Amino acid sequences for entries named in this document (tags omitted). A change or cut given only in a name is not applied to a line headed by its entry. Residues count along the entry.
# UniProt P46934, whole entry, looked up: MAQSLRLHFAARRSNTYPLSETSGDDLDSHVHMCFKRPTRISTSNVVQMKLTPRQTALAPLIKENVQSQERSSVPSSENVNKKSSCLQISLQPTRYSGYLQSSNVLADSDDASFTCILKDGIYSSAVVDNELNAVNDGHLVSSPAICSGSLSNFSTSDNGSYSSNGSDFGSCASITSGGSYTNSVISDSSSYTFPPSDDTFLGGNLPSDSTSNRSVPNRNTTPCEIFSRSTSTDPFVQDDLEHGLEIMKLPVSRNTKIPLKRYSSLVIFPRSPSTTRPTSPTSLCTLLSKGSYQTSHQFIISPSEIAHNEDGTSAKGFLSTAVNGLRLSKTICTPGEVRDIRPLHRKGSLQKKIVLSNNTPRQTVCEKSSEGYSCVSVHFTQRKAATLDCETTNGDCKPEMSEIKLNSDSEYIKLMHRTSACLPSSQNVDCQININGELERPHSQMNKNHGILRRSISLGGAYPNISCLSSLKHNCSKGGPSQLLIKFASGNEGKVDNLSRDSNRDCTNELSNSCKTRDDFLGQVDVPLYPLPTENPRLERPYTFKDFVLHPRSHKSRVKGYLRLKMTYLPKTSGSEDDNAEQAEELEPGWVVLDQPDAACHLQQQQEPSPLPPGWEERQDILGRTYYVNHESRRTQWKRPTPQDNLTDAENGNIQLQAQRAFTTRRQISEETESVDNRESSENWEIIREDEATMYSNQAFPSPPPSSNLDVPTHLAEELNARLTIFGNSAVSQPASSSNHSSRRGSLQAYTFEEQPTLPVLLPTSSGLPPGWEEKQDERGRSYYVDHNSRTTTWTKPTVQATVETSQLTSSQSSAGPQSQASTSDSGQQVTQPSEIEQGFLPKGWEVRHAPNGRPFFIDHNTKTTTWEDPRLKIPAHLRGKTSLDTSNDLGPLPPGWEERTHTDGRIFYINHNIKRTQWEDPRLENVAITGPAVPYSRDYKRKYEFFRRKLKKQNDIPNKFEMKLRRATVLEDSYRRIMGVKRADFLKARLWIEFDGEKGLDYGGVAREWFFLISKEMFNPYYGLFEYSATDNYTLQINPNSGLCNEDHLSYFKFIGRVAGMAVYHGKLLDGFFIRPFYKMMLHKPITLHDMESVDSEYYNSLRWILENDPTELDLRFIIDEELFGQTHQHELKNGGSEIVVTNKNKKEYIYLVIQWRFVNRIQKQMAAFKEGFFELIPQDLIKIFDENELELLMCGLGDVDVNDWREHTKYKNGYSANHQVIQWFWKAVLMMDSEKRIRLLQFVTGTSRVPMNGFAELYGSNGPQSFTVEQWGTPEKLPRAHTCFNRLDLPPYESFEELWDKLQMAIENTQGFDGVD
# UniProt Q14833, 33-912 limits assumed: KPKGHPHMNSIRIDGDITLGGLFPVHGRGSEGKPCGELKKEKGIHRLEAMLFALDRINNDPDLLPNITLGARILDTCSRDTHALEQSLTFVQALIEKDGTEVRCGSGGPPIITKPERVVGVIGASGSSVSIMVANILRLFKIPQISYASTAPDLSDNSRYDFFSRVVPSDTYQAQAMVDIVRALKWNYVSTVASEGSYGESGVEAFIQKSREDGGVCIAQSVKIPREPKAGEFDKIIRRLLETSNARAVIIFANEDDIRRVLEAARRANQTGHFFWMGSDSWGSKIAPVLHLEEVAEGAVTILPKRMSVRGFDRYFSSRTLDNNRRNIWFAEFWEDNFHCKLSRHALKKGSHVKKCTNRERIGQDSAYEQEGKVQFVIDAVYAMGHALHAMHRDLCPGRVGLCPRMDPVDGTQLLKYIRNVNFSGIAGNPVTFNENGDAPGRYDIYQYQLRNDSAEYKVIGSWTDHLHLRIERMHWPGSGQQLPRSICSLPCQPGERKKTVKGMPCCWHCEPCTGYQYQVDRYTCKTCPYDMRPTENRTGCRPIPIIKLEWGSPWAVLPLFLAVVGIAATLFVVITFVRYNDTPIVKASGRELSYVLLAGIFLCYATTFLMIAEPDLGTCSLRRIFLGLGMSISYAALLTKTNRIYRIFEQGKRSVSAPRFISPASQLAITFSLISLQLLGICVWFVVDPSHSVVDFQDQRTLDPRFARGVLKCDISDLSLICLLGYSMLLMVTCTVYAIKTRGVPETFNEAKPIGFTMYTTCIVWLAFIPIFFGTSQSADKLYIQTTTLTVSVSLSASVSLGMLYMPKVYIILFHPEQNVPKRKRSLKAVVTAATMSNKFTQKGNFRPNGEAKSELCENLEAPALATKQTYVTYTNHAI
# UniProt P05067, 672-713 limits assumed: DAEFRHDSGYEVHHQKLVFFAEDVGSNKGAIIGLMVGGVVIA
# UniProt P31421, 19-872 limits assumed: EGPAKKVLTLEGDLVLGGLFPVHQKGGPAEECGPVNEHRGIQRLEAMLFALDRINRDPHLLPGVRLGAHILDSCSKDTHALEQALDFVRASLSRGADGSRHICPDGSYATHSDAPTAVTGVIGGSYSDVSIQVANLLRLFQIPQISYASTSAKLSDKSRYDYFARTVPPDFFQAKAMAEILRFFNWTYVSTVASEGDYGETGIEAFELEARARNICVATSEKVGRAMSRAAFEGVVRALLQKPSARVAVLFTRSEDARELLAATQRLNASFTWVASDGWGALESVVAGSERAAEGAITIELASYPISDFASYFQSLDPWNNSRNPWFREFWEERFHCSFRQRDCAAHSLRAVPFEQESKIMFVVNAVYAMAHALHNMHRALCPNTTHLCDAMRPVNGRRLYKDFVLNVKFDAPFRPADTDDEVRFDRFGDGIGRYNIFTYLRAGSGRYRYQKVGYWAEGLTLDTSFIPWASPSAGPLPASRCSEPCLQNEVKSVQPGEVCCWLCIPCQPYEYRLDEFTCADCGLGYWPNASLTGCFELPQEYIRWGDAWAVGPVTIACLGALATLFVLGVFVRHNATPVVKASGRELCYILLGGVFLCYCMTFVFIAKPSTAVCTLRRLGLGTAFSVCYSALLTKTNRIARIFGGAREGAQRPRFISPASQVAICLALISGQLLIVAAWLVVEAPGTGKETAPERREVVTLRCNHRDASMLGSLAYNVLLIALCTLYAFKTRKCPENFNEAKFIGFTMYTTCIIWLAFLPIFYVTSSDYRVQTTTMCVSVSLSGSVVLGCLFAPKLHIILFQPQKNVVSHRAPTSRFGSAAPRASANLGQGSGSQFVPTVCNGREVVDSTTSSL
# UniProt Q99797, 36-713 limits assumed: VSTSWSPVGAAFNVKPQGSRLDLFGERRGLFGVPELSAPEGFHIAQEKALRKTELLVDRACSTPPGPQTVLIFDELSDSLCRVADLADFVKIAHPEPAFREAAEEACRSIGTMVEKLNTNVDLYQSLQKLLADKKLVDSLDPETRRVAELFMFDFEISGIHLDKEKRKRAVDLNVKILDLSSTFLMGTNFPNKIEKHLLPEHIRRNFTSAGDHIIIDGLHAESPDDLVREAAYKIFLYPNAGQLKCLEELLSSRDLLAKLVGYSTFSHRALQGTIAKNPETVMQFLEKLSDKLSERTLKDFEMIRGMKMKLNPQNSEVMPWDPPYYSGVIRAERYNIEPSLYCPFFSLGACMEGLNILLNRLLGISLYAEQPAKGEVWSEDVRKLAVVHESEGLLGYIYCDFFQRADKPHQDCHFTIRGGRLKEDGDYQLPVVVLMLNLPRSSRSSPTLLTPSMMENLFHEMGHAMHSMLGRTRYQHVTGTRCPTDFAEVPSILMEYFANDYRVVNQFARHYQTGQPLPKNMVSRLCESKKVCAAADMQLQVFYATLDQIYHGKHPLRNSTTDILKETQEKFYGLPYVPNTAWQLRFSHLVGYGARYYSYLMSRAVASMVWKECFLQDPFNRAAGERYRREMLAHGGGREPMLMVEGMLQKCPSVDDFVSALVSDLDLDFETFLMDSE
# UniProt Q9GZT9, whole entry: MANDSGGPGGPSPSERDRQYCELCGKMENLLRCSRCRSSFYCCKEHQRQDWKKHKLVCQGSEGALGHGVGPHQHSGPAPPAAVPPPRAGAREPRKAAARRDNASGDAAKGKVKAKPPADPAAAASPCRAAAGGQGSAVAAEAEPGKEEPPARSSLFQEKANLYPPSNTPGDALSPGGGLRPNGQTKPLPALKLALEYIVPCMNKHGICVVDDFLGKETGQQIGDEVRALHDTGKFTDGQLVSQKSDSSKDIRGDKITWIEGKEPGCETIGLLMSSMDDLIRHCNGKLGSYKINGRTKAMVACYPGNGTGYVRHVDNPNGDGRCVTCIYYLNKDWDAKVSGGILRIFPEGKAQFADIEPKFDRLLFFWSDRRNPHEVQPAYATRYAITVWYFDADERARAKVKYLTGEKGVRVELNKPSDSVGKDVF
# UniProt O75874, whole entry R132H: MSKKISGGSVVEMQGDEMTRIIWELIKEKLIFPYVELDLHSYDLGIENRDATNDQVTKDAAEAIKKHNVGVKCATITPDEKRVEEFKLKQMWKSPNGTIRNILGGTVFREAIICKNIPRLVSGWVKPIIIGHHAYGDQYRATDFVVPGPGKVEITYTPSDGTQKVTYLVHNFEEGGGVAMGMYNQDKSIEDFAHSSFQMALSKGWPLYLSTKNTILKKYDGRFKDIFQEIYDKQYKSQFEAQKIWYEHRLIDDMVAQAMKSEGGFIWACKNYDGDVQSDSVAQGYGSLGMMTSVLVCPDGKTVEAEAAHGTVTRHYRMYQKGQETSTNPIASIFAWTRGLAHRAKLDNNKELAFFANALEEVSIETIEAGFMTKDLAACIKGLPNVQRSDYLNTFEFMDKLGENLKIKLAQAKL
# UniProt P30291, whole entry: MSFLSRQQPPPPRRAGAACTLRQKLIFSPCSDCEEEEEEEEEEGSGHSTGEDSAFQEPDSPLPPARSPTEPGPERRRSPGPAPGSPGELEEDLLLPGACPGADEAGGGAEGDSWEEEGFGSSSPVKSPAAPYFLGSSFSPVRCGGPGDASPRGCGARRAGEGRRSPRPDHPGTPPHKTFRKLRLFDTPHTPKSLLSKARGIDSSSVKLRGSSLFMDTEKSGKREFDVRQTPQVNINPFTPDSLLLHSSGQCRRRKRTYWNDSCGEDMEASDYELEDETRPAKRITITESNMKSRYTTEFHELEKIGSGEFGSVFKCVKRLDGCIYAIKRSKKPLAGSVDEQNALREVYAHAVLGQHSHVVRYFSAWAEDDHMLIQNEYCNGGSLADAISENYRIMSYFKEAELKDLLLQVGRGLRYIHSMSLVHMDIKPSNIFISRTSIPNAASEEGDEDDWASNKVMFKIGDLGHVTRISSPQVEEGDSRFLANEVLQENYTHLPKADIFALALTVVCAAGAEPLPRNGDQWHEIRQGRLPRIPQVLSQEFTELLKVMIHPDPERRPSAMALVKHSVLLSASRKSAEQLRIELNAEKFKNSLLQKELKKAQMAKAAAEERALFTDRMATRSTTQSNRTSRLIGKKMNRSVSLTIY
# UniProt Q96SW2, whole entry: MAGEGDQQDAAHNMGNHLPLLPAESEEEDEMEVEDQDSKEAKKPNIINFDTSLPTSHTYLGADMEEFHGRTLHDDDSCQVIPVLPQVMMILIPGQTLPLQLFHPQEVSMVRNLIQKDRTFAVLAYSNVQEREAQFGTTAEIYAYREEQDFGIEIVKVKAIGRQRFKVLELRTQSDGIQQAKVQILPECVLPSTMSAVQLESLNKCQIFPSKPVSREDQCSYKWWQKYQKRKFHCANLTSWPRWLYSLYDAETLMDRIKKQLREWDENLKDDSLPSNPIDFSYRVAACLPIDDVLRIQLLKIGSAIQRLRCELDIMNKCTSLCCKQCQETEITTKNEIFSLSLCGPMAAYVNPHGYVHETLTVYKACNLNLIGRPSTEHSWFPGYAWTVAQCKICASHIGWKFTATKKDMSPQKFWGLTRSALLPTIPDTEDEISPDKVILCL
# UniProt Q5VWZ2, whole entry: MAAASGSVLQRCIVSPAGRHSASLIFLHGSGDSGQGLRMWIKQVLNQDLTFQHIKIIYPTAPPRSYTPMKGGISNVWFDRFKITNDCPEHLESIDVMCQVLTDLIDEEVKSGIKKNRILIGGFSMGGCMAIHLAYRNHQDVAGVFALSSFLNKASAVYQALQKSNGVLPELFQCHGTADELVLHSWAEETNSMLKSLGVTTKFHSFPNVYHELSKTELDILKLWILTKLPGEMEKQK
# UniProt Q3UFF7, whole entry: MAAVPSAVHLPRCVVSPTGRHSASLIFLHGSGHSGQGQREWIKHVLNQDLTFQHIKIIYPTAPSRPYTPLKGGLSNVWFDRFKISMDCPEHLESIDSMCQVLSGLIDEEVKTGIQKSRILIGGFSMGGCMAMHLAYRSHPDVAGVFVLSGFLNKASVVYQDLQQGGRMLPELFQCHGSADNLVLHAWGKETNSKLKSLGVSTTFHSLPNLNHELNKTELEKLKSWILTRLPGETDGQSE
# UniProt Q0GNC1, 589-979 limits assumed: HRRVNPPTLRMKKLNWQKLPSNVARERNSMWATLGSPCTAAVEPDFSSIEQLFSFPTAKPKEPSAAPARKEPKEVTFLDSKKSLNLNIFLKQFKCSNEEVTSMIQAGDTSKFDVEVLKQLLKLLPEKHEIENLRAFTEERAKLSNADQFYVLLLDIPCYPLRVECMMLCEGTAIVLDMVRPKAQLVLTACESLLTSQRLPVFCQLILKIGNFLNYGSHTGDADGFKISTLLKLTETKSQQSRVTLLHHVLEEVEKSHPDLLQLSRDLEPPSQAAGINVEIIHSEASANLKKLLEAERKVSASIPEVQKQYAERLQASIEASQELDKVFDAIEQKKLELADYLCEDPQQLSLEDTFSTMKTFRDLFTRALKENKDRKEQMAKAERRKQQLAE
# Protocols differ between the studies behind these lines. “And” joins repeats or separate records; there may be more than shown. ± gives the spread as reported.
# E3 ubiquitin-protein ligase NEDD4: E3 ubiquitin-protein ligase NEDD4 (Homo sapiens, UniProt P46934)
# GLP1R: Glucagon-like peptide 1 receptor (GLP1R, Homo sapiens, UniProt P43220)
# MAPK8: Mitogen-activated protein kinase 8 (MAPK8, Homo sapiens, UniProt P45983)
# RPA1 N-terminal domain: Replication protein A 70 kDa DNA-binding subunit, N-terminal domain (RPA1, Homo sapiens, UniProt P27694)
# GRM4: Metabotropic glutamate receptor 4 (GRM4, Homo sapiens, UniProt Q14833)
Compound,target,assay,system,setting,how to read,endpoint,value
CCOC(=O)/C=C/CNCCCN1c2ccccc2CCc2ccc([N+](=O)[O-])cc21,E3 ubiquitin-protein ligase NEDD4,"inhibitor, Ub-TR-FRET",,"0.005081 µM, 1 h preincubation, HECT domain, added: ATP 2 mM",higher = more ubiquitination,ubiquitination TR-FRET signal AUC,147000 a.u. and 149000 a.u. and 150000 a.u.
Cc1cc(SCc2sc(-c3ccc4[nH]ncc4c3)nc2C)ccc1OCC(=O)O,"Vitamin D3 receptor (VDR, Homo sapiens, UniProt P11473)","reporter gene, antagonist",HEK-293T,"up to 100 µM, CYP24A1 promoter luciferase, added: 1,25(OH)2D3 10 nM",,IC50,inactive
Nc1ncnc2c1c(-c1ccc(C(=O)Nc3cc(OC(F)(F)F)ccn3)cc1)nn2[C@@H]1CCCN(C(=O)C2CC2)C1,"Tyrosine-protein kinase BTK, non-phosphorylated (BTK, Homo sapiens, UniProt Q06187)",TR-FRET binding kinetics,,"25 °C, unphosphorylated protein",,residence time,42.2 min
Cc1[nH]c2cc(Cl)cc(Cl)c2c1CCn1cc(CCCCO)nn1,GLP1R,"cAMP accumulation, positive allosteric modulator, HTRF",,"0.6 µM, purified compound, added: GLP-1(9-36) at EC20",relative to: BETP,Emax,98 ± 5%
COC(=O)/C(=C/c1c[nH]c2ccc(C#N)cc12)c1ccc(NS(C)(=O)=O)cc1,"Amyloid-beta precursor protein, Aβ1-40 (APP, Homo sapiens, UniProt P05067)","Aβ40 aggregation, thioflavin T fluorescence",,25 µM,,inhibition,0%
CCOC(=O)/C=C/CNCCCCN1c2ccccc2CCc2ccc(Cl)cc21,E3 ubiquitin-protein ligase NEDD4,"inhibitor, Ub-TR-FRET",,"0.005081 µM, 1 h preincubation, HECT domain, added: ATP 2 mM",higher = more ubiquitination,ubiquitination TR-FRET signal AUC,93400 a.u. and 92400 a.u. and 93200 a.u. and 90900 a.u. and 146000 a.u. and 91600 a.u.
C[C@H]1N[C@@H](c2c[nH]c3c(=O)[nH]cnc23)[C@H](O)[C@@H]1O,"Purine nucleoside phosphorylase (PNP, Homo sapiens, UniProt P00491)",isothermal titration calorimetry,,"concentration not given, pH 7.4, 27 °C, first subunit, added: phosphate 50 mM",,binding enthalpy ΔH,-8.5 ± 0.2 kcal/mol
Cc1cc(NC(=O)c2cccc(NC(=O)C3=CC(C)(C)CC3=O)c2)ccc1Nc1nccc(-c2cccnc2)n1,MAPK8,"kinase activity, inhibitor",,"14.81 µM, unit not given, added: 10 mM GSH",relative to: DMSO,remaining activity,0.0727
Cc1ccc(C(=O)Nc2ccc(Br)cc2C(=O)O)cc1S(=O)(=O)Nc1ccc(Br)cc1,RPA1 N-terminal domain,"binding, fluorescence polarisation competition",,added: FITC-ATRIP probe,,ligand efficiency,0.21
COC(=O)CCCC(C(=O)/C=C/c1ccc(O)c(OC(F)(F)F)c1)C(=O)/C=C/c1ccc(O)c(OC(F)(F)F)c1,"Amyloid-beta precursor protein (APP, Homo sapiens, UniProt P05067)","SDS-PAGE western blot, item: Aβ1-42 species 75-200 kDa",,"30 µM, 24 h, 37 °C, added: Aβ 10 µM",relative to: DMSO control,Aβ band density,805 ± 253%
COCCN1C(=O)C(O)=C(C(=O)c2ccc(C)cc2)C1c1ccc(OC)cc1OC (centres unmarked),"fMet-Leu-Phe receptor (FPR1, Homo sapiens, UniProt P21462)","fMLF-induced calcium mobilization, antagonist",HL-60 expressing FPR1,"concentration not given, inactive if none at 50 µM",,antagonist activity,active
O=S(=O)(Cc1ccc(-c2nc(-c3cccnc3)no2)o1)c1ccc(Cl)cc1,"Catenin beta-1, residues 141-305 (CTNNB1, Homo sapiens, UniProt P35222)",isothermal titration calorimetry,,"concentration not given, 25 °C",,binding stoichiometry,0.93
NC(=O)c1cn(-c2ccc(F)cc2)c2ccc(CN3CCCCC3)cc2c1=O,"Metabotropic glutamate receptor 2 (Grm2, Rattus norvegicus, UniProt P31421)","calcium mobilization, negative allosteric modulator",,"30 µM, added: glutamate 100 µM",relative to: glutamate maximum,response,37.2 ± 9.7%
CCc1ccc(NC(=O)c2ccc(C)c(S(=O)(=O)Nc3cccc(Cl)c3)c2)c(C(=O)O)c1,RPA1 N-terminal domain,"binding, fluorescence polarisation competition",,added: FITC-ATRIP probe,,ligand efficiency,0.23
COc1ccc(NC(=O)CN2CCCN(S(=O)(=O)c3ccc(Cl)c(F)c3)CC2)c(OC)c1,GRM4,"calcium mobilization, positive allosteric modulator",CHO cells with Gqi5,added: glutamate,relative to: PHCCC maximal response,maximal response,25.5 ± 1.2%
CC(=O)N1CCN(c2ccc(Nc3ncc4c(n3)N(C)C(=O)N(c3cc(NC(=O)c5cccc(C(F)(F)F)c5)ccc3C)C4)cn2)CC1,"FGFR4/Transcription factor ETV6 (Homo sapiens, UniProt P22455+P41212)",cell proliferation,Ba/F3 TEL-FGFR4,72 h,,GI50,15 nM
N#Cc1cnc(Nc2nc3ccccc3o2)nc1C1CCCCC1,"Metabotropic glutamate receptor 5 (Grm5, Rattus norvegicus, UniProt P31424)","calcium mobilization, negative allosteric modulator",,added: glutamate EC80,relative to: glutamate maximum,maximal response,3.8 ± 0.8%
O=C(N[C@H]1CCCC[C@@H]1O)[C@@H]1CN(Cc2ccc(-n3cccn3)cc2)c2ccccc2O1,"Muscarinic acetylcholine receptor M1 (CHRM1, Homo sapiens, UniProt P11229)","calcium mobilization, agonist",high-expression cell line,,relative to: acetylcholine max,efficacy,16%
O=C(Nc1nccs1)C12CC1/C(=N\O)c1ccccc1O2 (centres unmarked),GRM4,"positive allosteric modulator, calcium mobilization",CHO expressing Gqi5,"concentration not given, added: glutamate EC20",relative to: glutamate 1 mM,response,127 ± 10.4%
COc1ccccc1-c1cc(C(F)(F)F)nc(S(C)(=O)=O)n1,GLP1R,"cAMP accumulation, agonist",HEK293T overexpressing target,no peptide ligand,,Emax,75 ± 21%
C/C=C/Cn1c(Cc2cc(OC)c(OC)c(OC)c2)nc2c(N)ncnc21,"Heat shock protein HSP 90-alpha, N-terminal domain (HSP90AA1, Homo sapiens, UniProt P07900, S52A)","isothermal titration calorimetry, one-site model",,"concentration not given, 298 K, N-terminal domain S52A",,binding stoichiometry,1.16 ± 0.11
CC(C)C[C@H](NC(=O)[C@@H]1CCCN1C(=O)[C@H](CCC(N)=O)NC(=O)CNC(=O)[C@H](CO)NC(=O)[C@H](CCCNC(=N)N)NC(=O)[C@H](Cc1ccccc1)NC(=O)[C@H](CC(N)=O)NC(=O)[C@H](CCCNC(=N)N)NC(=O)[C@@H](NC(=O)c1ccccc1N)C(C)C)C(=O)N[C@@H](CCC(N)=O)C(=O)N[C@@H](CC(N)=O)C(=O)N[C@@H](CCCCN)C(=O)N[C@H](C(=O)N[C@@H](CCC(N)=O)C(=O)NCCNc1ccc([N+](=O)[O-])cc1[N+](=O)[O-])C(C)C,"Mitochondrial intermediate peptidase (MIPEP, Homo sapiens, UniProt Q99797)","substrate, FRET peptide hydrolysis",,,,kcat/Km,124 mM⁻¹ s⁻¹
O=C(O)c1ccnc(C(=O)O)c1Nc1ccccc1[N+](=O)[O-],"Egl nine homolog 1 (EGLN1, Homo sapiens, UniProt Q9GZT9)","inhibitor, HTRF",,400 µM,,remaining activity,100%
C[C@H](Nc1nc(N[C@H](C)C2CC2)nc(-c2cccc(C(F)(F)F)n2)n1)C1CC1,"Isocitrate dehydrogenase [NADP] cytoplasmic (IDH1, Homo sapiens, UniProt O75874, R132H)","enzyme activity, inhibitor",,mutant heterodimer reverse reaction,,maximal inhibition,110%
CC(C)(C)CC(C)(C)Nc1c(-c2ccc3c(c2)CN(C2CCC(=O)NC2=O)C3=O)nc2ccccn12 (centres unmarked),"WEE1/CRBN (Homo sapiens, UniProt P30291+Q96SW2)","degrader, HiBiT",Jurkat,5 h,,Dmax,98%
Nc1nc(SCc2ccc(Cl)cc2)nn1S(=O)(=O)c1cccc([N+](=O)[O-])c1,"Lysophospholipase-like protein 1 (LYPLAL1, Homo sapiens, UniProt Q5VWZ2)","activator, gel-based ABPP",purified protein,,relative to: DMSO,FP-rhodamine labelling,2.5 fold
CCOC(=O)/C=C/CNCCCN1c2ccccc2CCc2ccccc21,E3 ubiquitin-protein ligase NEDD4,"inhibitor, Ub-TR-FRET",,"100 µM, 1 h preincubation, HECT domain, added: ATP 2 mM",higher = more ubiquitination,ubiquitination TR-FRET signal AUC,34900 a.u. and 29800 a.u. and 30000 a.u.
COc1ccc(NC(=O)CN2CCCN(S(=O)(=O)CC(C)C)CC2)c(OC)c1,GRM4,"calcium mobilization, positive allosteric modulator",CHO cells with Gqi5,added: glutamate,relative to: PHCCC maximal response,maximal response,21.3 ± 0.9%
Nc1nc(SCc2ccc(Cl)cc2)nn1S(=O)(=O)c1ccc(C(F)(F)F)nc1,"Lysophospholipase-like protein 1 (Mus musculus, UniProt Q3UFF7)","activator, gel-based ABPP FP-rhodamine",,,relative to: DMSO,probe labelling,1.3 fold
Cc1cc(=O)oc2cc(NC(=O)[C@H](Cc3ccc(O)cc3)NC(=O)[C@@H](NC(=O)[C@H](CC(C)C)NC(=O)[C@H](CC(C)C)NC(=O)CCC(=O)O)C(C)C)ccc12,"Proteasome Macropain subunit MB1 (PSMB5, Homo sapiens, UniProt P28074)","chymotrypsin-like activity, substrate",,"pH 7.8, 37 °C, added: oligomeric Aβ(1-42) 5 µM",,Km,38 ± 9.1 µM
COC(=O)[C@@]1(C)C=C(C(=O)Nc2cccc(C(=O)NC34CC(Nc5nccc(-c6cccnc6)n5)(C3)C4)c2)C(=O)CC1,MAPK8,"kinase activity, inhibitor",,"0.06097 µM, added: 10 mM GSH",,remaining activity,0.296 fraction of control
Nc1ccc([N+](=O)[O-])cc1-c1nc2ccccc2[nH]c1=O,"Inverted formin-2, FH1-FH2 domains (Inf2, Mus musculus, UniProt Q0GNC1)","actin assembly, pyrene-actin polymerization",,concentration not given,,maximal inhibition,≤ 75%

# Excerpt of the above:
Compound,target,assay,system,setting,how to read,endpoint,value
CCOC(=O)/C=C/CNCCCN1c2ccccc2CCc2ccc([N+](=O)[O-])cc21,E3 ubiquitin-protein ligase NEDD4,"inhibitor, Ub-TR-FRET",,"0.005081 µM, 1 h preincubation, HECT domain, added: ATP 2 mM",higher = more ubiquitination,ubiquitination TR-FRET signal AUC,147000 a.u. and 149000 a.u. and 150000 a.u.
O=C(O)c1ccnc(C(=O)O)c1Nc1ccccc1[N+](=O)[O-],"Egl nine homolog 1 (EGLN1, Homo sapiens, UniProt Q9GZT9)","inhibitor, HTRF",,400 µM,,remaining activity,100%
O=C(Nc1nccs1)C12CC1/C(=N\O)c1ccccc1O2 (centres unmarked),GRM4,"positive allosteric modulator, calcium mobilization",CHO expressing Gqi5,"concentration not given, added: glutamate EC20",relative to: glutamate 1 mM,response,127 ± 10.4%
CC(=O)N1CCN(c2ccc(Nc3ncc4c(n3)N(C)C(=O)N(c3cc(NC(=O)c5cccc(C(F)(F)F)c5)ccc3C)C4)cn2)CC1,"FGFR4/Transcription factor ETV6 (Homo sapiens, UniProt P22455+P41212)",cell proliferation,Ba/F3 TEL-FGFR4,72 h,,GI50,15 nM
O=S(=O)(Cc1ccc(-c2nc(-c3cccnc3)no2)o1)c1ccc(Cl)cc1,"Catenin beta-1, residues 141-305 (CTNNB1, Homo sapiens, UniProt P35222)",isothermal titration calorimetry,,"concentration not given, 25 °C",,binding stoichiometry,0.93
